Experimental data of several laboratories.
Lines come from different studies, so protocols differ. Values joined by “and” are separate records of one study, mostly repeats; a detail may differ. ± gives the spread as reported. ≈ marks a conversion by molar mass, not a printed value.

O=C(O)c1cc(/N=N/c2ccc(S(=O)(=O)Nc3ccccn3)cc2)ccc1O  thermodynamic solubility (shake-flask; soybean oil; 37 °C): 0.01 mg/g
C=CC(N)CCC(=O)O (stereo not drawn)  Tmax (median) (male Sprague-Dawley rat, plasma; oral, 10 mg/kg, formulation 9, with: low-fat infant formula 1500 mg/kg): 0.67 h
CCCC[C@H](NC(C)=O)C(=O)N[C@H]1CCC(=O)NC[C@@H](C(=O)N[C@@H](Cc2c[nH]c3ccccc23)C(N)=O)NC(=O)[C@H](CCCNC(=N)N)NC(=O)[C@@H](Cc2ccccc2)NC(=O)[C@H](Cc2c[nH]cn2)NC1=O  AUC(0-last) (beagle dog, female, plasma; subcutaneous, 1.5 mg/kg daily, day 28): 210 ng·h/mL
O=S(=O)(O)Oc1c[nH]c2ccccc12  total plasma concentration ratio (human hemodialysis patients, plasma; pre-treatment; relative to: hemodialysis over normal subjects): 26
O=c1cc[nH]c(=O)[nH]1  share of tissue radioactivity (male CD-1 mice, small intestine without content; intravenous, 1 mg/kg, 1 h): 67.8%
CCCC[C@@H]1NC(=O)[C@@H](NC(=O)[C@H](CCC(=O)O)NC(=O)CNC(=O)CN2CCN(CC(=O)O)CCN(CC(=O)O)CCN(CC(=O)O)CC2)CCCCNC(=O)C[C@@H](C(N)=O)NC(=O)[C@H](C(C)C)NC(=O)[C@@H]2CCCN2C(=O)[C@H](CCCNC(=N)N)NC(=O)CNC(=O)[C@H](Cc2c[nH]c3ccccc23)NC(=O)[C@H](CCCNC(=N)N)NC(=O)[C@@H](Cc2ccccc2)NC(=O)[C@H](Cc2c[nH]cn2)NC(=O)[C@H](CCC(=O)O)NC1=O [indium-111 labelled]  tissue uptake (normal C57 mice, blood; intravenous, 0.037 MBq, 2 h): 0.01 ± 0.01 %ID/g
C[C@@H]1CN(c2c(F)c(N)c3c(=O)c(C(=O)O)cn(C4CC4)c3c2F)C[C@H](C)N1  QTc change (male Hartley guinea pig, anaesthetized; intravenous infusion, 3 mg/kg, 10 min infusion; relative to: baseline): 6.6 ± 0.9%
CCN1CCN(Cc2ccc(Nc3ncc(F)c(-c4cc(F)c5nc(C)n(C(C)C)c5c4)n3)nc2)CC1  Vdss (human, plasma; intravenous, 0.4 mg): 724 L
N[C@@H](CC(=O)N1CCn2c(nnc2C(F)(F)F)C1)Cc1cc(F)c(F)cc1F  AUC(0-2 h) (healthy Korean subjects, plasma; oral, 100 mg single dose, ABCB1 G2677T/A AT+GA): 464 ± 162 ng·h/mL
N[C@@H](CC(=O)N1CCn2c(nnc2C(F)(F)F)C1)Cc1cc(F)c(F)cc1F  log AUC(0-48h) (adult UCB transplant recipients, plasma; oral, 600 mg four times, observed median): 9.73 ng·h/mL
Cc1nc2cccc(OCC(C)(C)C(=O)NC(C)C)c2c(N)c1C(=O)O  Cmax (Sprague-Dawley rat, male, plasma; oral gavage, 10 mg/kg, day 1): 12.9 ± 3.2 ng/mL
COc1ccc2c(c1)c(CC(=O)O)c(C)n2C(=O)c1ccc(Cl)cc1  thermodynamic solubility (shake-flask; soybean oil; 37 °C): 2.02 ± 0.05 mg/g
C[C@]12CC[C@@H]3c4ccc(O)cc4CC[C@H]3[C@@H]1C[C@@H](O)[C@@H]2O  median serum concentration (GC-MS; breast cancer women on NSAI, serum; vaginal, 0.03 mg, 4 h, day 0): 0.0261 ng/mL
[2H]C([2H])([2H])Oc1cc2c(cc1OC([2H])([2H])[2H])C1CC(=O)C(CC(C)C)CN1CC2 (stereo not drawn)  dose-normalized Cmax (item: deuterated α-HTBZ; healthy human volunteers, plasma; oral, 6 mg single dose, standard meal): 1.6 ng/mL
COc1c(OCCCN2CCOCC2)ccc2c1N=C(NC(=O)c1cnc(N)nc1)N1CCN=C21  AUC(0-25 h) (human, solid tumours, plasma; intravenous, 0.8 mg/kg, cycle 1 day 1): 1690 ng·h/mL
Cn1c(-c2ccc(C(N)=O)cc2F)nnc1C(C)(C)Oc1c(F)cc(Cl)cc1F  apparent volume of distribution Vz/F (young non-Japanese healthy subjects, plasma; oral, 0.2 mg once daily, 3 mg loading day 1, min-max, last dosing day): 809 to 5850 L
CNC(=O)c1cc(Oc2ccc(NC(=O)Nc3ccc(Cl)c(C(F)(F)F)c3)c(F)c2)ccn1  AUC(0-8 h) (healthy male human, plasma; ocular, 0.75 mg single, first dose): 0.302 ng·h/mL
COC(=O)Nc1nc2ccc(Sc3ccccc3)cc2[nH]1  thermodynamic solubility (shake-flask; PEG400; 37 °C): 2.83 ± 0.07 mg/g
O=C(CCCCCCC(=O)Nc1ccccc1)NO  AUC(0-7 h) (human patients, serum; oral, 600 mg, cycle -1 day 2): 4.72 µM·h
O=C1c2c(O)cc(O)cc2OC(c2ccc(O)c(O)c2)C1O (stereo not drawn)  Papp A→B (mass spectrometry; Caco-2; 40 µM, 6 h): 24.8 ×10⁻⁶ cm/s
CC(=O)Oc1ccccc1C(=O)O  QTc change (male Hartley guinea pig, anaesthetized; intravenous infusion, 1 mg/kg, 10 min infusion; relative to: baseline): 0.5 ± 0.8%
RIPLEM  peptide cleavage (substrate, gel electrophoresis; peptide, mouse, PyMT tumour, PyMT tumour tissue extract; 5 µM, 16 h, 37 °C, 2% extract, 1 mM ZnCl2): < 10%
CS/C(S)=N/CCCC[S+](C)[O-] (racemic)  mRNA fold change (RT-PCR, item: Cyp2c6; rat, liver; oral gavage, 200 mg/kg, dosed for four days; relative to: vehicle): 1.12
C[C@H](Oc1ccc(-c2nc(-c3ccc4[nH]cnc4c3)no2)cc1C(F)(F)F)C(F)(F)F  plasma concentration (cynomolgus monkey, aneurysm model, plasma; 0.1 mg/kg once daily, 4 h post-dose, 3 months dosing): 0.018 ± 0.0019 µM
C[C@H]1Oc2cc(cnc2N)-c2c(nn(C)c2C#N)CN(C)C(=O)c2ccc(F)cc21  initial clearance (human (NSCLC and healthy); oral and intravenous, 100 mg, bootstrap mean): 151 mL/min
C[C@](N)(Cc1ccc(O)c(O)c1)C(=O)O  solubility (supercritical carbon dioxide; 5 h, 313 K, 30 MPa, density 910.3 kg/m3): 334 µg/mL (≈ 1580 µM)
CC(C)=CCc1c(O)c(CC=C(C)C)c2oc3c(O)ccc(O)c3c(=O)c2c1O  free tumour concentration (Balb/c nu/nu mice, HT-29 xenograft, tumour tissue; oral, 901 mg/kg xanthones in diet, 4 weeks after implantation): 320 ± 120 ng/g
COC(=O)C[C@](O)(CCCC(C)(C)O)C(=O)O[C@@H]1C(OC)=C[C@]23CCCN2CCc2cc4c(cc2[C@H]13)OCO4  tissue concentration (CD1 mouse, brain; subcutaneous, 1 mg/kg, 24 h, below quantification limit 1.00 ng/mL): not detected
COC(=O)N[C@H](C(=O)N[C@@H](Cc1ccccc1)[C@@H](O)CN(Cc1ccc(-c2ccccn2)cc1)NC(=O)[C@@H](NC(=O)OC)C(C)(C)C)C(C)(C)C  Papp A→B (Caco-2): 11 ×10⁻⁶ cm/s
CCCCN(CCCC)CCC(O)c1cc2c(Cl)cc(Cl)cc2c2cc(C(F)(F)F)ccc12 (stereo not drawn)  thermodynamic solubility (shake-flask; PEG400; 37 °C): 5.73 ± 0.38 mg/g
CCSCc1ccc2c(c1)c1c3c(c4c5cc(CSCC)ccc5n5c4c1n2[C@H]1C[C@](O)(C(=O)OC)[C@]5(C)O1)CNC3=O  AUC(tau) (HIV-infected patients, plasma; oral, 50 mg twice daily, day 21, steady state, with: atazanavir/ritonavir 300/100 mg once daily): 3560 ng·h/mL
Cc1cc(Nc2ncc(Cl)c(Nc3ccccc3S(=O)(=O)C(C)C)n2)c(OC(C)C)cc1C1CCNCC1  AUC(tau) at steady state (item: total drug; patients, plasma; oral, 750 or 450 mg/day, arithmetic mean): 23.7 µM·h
Nc1nc(NC2CC2)c2ncn([C@H]3C=C[C@@H](CO)C3)c2n1  effective permeability (equilibrium dialysis; cellulose membrane, cell-free; pH 7.4, with: 0.5% w/w Pluronic P85): 115 ± 26 ×10⁻⁶ cm/s
O=C1N=C(N2CCOCC2)CN1c1ccc(Cl)cc1  Vz/F (beagle dog, both sexes, plasma; oral, 30 mg/kg, tablets, fasted, day 5): 0.789 L/kg
O=C(O)[C@H](c1ccccc1Cl)N1CCc2sccc2C1  deviation from nominal (HPLC-MS/MS; feline citrate plasma; 6 h, 4 °C, storage stability): 8%
CCCCCCCCC/C=C/C(=O)CCc1ccc(O)c(OC)c1  recovery (rat, small intestine site 4 contents; oral, dose not given, 4 h, β-glucuronidase treated; relative to: ingested amount): 0.09%
COc1ccc2nc([S@@+]([O-])Cc3ncc(C)c(OC)c3C)[nH]c2c1  adverse events (human healthy; 40 mg, vessel puncture site pain): 0%
O=C(C1CCCCC1)N1CC(=O)N2CCc3ccccc3C2C1 (stereo not drawn)  thermodynamic solubility (shake-flask; polysorbate 80; 37 °C): 19.2 ± 1.2 mg/g
NC(=O)CN[C@@H]1CCCNC1  pKa2 (capillary electrophoresis-MS; water): 8.46
Cc1nc(-c2ccc(OCC(C)C)c(C#N)c2)sc1C(=O)O  Vz/F at steady state (pediatric patients under sample A kg, plasma; oral, 20 mg once daily, fed, PopPK post hoc): 58.4 ± 15 L
CNc1nc(Nc2ccc(-n3cnc(C)n3)c(OC)c2)nc2c1CC[C@H]2c1ccc(F)cc1  Tmax (human, plasma; oral, 30 mg, single dose, healthy volunteers): 4 h
Cc1cccc(Nc2ccccc2C(=O)O)c1C  thermodynamic solubility (shake-flask; soybean oil; 37 °C): 1.87 ± 0.12 mg/g
CS(=O)(=O)OC[C@H](O)[C@@H](O)COS(C)(=O)=O  concentration in red blood cells (Wistar rat, female, red blood cells; intraperitoneal, 500 mg/kg, 4 h): 90 µM and 70 µM
CCOc1c([C@H](C)n2nc(C)c3c(N)ncnc32)cc(Cl)c(F)c1[C@@H]1CNC(=O)C1  Vz/F (Japanese patients, plasma; oral, 20 mg once daily, cycle 1 day 15): 31.2 ± 9.8 L
CN[C@H](CC(C)C)C(=O)N[C@H]1C(=O)N[C@@H](CC(N)=O)C(=O)N[C@H]2C(=O)N[C@H]3C(=O)N[C@H](C(=O)N[C@H](C(=O)O)c4cc(O)cc(O)c4-c4cc3ccc4O)[C@H](O)c3ccc(c(Cl)c3)Oc3cc2cc(c3O[C@@H]2O[C@H](CO)[C@@H](O)[C@H](O)[C@H]2O[C@H]2C[C@](C)(N)[C@H](O)[C@H](C)O2)Oc2ccc(cc2Cl)[C@H]1O  time to reach MIC (pig, plasma; intravenous, 1000 mg, with: MIC 4 µg/mL): 3 min
CCCOc1ccc([C@H]2CNC(=O)N2c2ccc3[nH]cnc3c2)cc1  Tmax (human, plasma; oral, 800 mg, single dose, fasted, healthy volunteers): 1.5 h
O=C1CCc2cc(OC[C@H](O)CN3CCN(c4ccc(C(F)(F)F)cc4)CC3)ccc2N1  clearance (human, plasma; intravenous, 50 mg, multiple doses, once daily, steady state): 200 mL/min
acyl ghrelin (human)  tissue/serum ratio (wild-type mice, midbrain; intravenous, dose not given, 10 min, vascular space corrected): 6.16 µL/g
COc1cc(OC)c(/C=C/S(=O)(=O)Cc2ccc(OC)c(NCC(=O)O)c2)c(OC)c1  AUC(0-inf) (cancer patients, phase I, plasma; oral, 140 mg twice daily, day 1 cycle 1): 3490 ± 5250 ng·h/mL
CC(C)/N=c1\cc2n(-c3ccc(Cl)cc3)c3ccccc3nc-2cc1Nc1ccc(Cl)cc1  thermodynamic solubility (shake-flask; Captex 355; 37 °C): 13.3 ± 0.38 mg/g
CNCc1ccc(-c2[nH]c3cc(F)cc4c3c2CCNC4=O)cc1  AUC(0-t) (human patients, plasma; oral, 840 mg twice daily, day 15, steady state, arithmetic mean): 29000 ng·h/mL
COc1c(OCCCN2CCOCC2)ccc2c1N=C(NC(=O)c1cnc(N)nc1)N1CCN=C21  AUC(0-25 h) (human patients, plasma; intravenous, 0.6 mg/kg 3 weeks on 1 week off, cycle 1 day 1): 947 ng·h/mL
NC(=O)N1c2ccccc2C=Cc2ccccc21  thermodynamic solubility (shake-flask; PEG400; 37 °C): 73.9 ± 4.71 mg/g
O=C(c1cc(Cc2n[nH]c(=O)c3ccccc23)ccc1F)N1CCN(C(=O)C2CC2)CC1  AUC(0-10 h) (human patients, plasma; oral, 100 mg twice daily, day 1, alone): 6800 ± 2700 ng·h/mL

Repeated from above:
O=C(C1CCCCC1)N1CC(=O)N2CCc3ccccc3C2C1 (stereo not drawn)  thermodynamic solubility (shake-flask; polysorbate 80; 37 °C): 19.2 ± 1.2 mg/g
CCCCN(CCCC)CCC(O)c1cc2c(Cl)cc(Cl)cc2c2cc(C(F)(F)F)ccc12 (stereo not drawn)  thermodynamic solubility (shake-flask; PEG400; 37 °C): 5.73 ± 0.38 mg/g
CS(=O)(=O)OC[C@H](O)[C@@H](O)COS(C)(=O)=O  concentration in red blood cells (Wistar rat, female, red blood cells; intraperitoneal, 500 mg/kg, 4 h): 90 µM and 70 µM
O=C1CCc2cc(OC[C@H](O)CN3CCN(c4ccc(C(F)(F)F)cc4)CC3)ccc2N1  clearance (human, plasma; intravenous, 50 mg, multiple doses, once daily, steady state): 200 mL/min
O=C1N=C(N2CCOCC2)CN1c1ccc(Cl)cc1  Vz/F (beagle dog, both sexes, plasma; oral, 30 mg/kg, tablets, fasted, day 5): 0.789 L/kg
Cc1nc(-c2ccc(OCC(C)C)c(C#N)c2)sc1C(=O)O  Vz/F at steady state (pediatric patients under sample A kg, plasma; oral, 20 mg once daily, fed, PopPK post hoc): 58.4 ± 15 L
